Results pooled from the literature.
Protocols differ between the studies behind these lines. ≈ marks a conversion by molar mass, not a printed value.
Chain of UniProt Q9Y2K2 (whole entry, looked up): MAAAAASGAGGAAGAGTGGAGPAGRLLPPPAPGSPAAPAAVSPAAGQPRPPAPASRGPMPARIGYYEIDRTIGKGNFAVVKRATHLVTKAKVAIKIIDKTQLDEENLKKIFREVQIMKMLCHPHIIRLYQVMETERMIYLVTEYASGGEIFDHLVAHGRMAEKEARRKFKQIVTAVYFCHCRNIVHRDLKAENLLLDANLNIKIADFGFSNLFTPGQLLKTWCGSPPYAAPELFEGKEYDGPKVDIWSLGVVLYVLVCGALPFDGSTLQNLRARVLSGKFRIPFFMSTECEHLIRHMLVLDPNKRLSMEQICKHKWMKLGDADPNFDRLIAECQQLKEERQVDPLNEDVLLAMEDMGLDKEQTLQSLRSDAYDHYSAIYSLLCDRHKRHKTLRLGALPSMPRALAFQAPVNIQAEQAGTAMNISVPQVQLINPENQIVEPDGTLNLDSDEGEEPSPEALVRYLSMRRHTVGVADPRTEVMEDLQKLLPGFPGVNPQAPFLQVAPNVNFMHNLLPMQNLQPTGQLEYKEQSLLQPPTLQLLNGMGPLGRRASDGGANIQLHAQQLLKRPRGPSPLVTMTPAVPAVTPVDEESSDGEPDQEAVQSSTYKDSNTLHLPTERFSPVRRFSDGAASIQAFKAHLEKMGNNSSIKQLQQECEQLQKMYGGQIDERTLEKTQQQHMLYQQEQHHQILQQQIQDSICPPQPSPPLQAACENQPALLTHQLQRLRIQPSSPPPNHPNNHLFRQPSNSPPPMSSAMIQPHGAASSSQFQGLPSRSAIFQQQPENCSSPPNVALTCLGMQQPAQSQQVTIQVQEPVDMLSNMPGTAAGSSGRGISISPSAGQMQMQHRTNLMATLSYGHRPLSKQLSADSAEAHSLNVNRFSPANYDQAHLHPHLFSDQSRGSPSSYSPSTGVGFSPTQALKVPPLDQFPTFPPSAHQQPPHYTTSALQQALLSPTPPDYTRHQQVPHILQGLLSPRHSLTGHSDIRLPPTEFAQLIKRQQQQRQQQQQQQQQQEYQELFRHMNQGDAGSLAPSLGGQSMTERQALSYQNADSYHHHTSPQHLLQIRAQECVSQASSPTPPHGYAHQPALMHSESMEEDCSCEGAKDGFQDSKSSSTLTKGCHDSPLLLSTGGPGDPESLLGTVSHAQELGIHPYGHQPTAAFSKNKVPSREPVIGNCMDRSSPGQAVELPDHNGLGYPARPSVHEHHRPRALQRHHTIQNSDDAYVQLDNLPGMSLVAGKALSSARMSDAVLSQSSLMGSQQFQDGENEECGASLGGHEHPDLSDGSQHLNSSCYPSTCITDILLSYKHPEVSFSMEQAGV
Chain of UniProt P34975 (whole entry, looked up): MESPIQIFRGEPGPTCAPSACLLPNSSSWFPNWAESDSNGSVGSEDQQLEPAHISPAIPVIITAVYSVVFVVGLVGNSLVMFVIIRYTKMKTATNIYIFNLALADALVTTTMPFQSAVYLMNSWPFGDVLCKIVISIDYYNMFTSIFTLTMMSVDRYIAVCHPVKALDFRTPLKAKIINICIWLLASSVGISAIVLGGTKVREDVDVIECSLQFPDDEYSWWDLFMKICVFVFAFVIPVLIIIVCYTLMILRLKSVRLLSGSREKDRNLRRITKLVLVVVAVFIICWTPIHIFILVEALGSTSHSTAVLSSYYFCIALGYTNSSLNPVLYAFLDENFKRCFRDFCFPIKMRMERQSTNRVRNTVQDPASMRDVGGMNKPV
Chain of UniProt Q9Y616 (whole entry, looked up): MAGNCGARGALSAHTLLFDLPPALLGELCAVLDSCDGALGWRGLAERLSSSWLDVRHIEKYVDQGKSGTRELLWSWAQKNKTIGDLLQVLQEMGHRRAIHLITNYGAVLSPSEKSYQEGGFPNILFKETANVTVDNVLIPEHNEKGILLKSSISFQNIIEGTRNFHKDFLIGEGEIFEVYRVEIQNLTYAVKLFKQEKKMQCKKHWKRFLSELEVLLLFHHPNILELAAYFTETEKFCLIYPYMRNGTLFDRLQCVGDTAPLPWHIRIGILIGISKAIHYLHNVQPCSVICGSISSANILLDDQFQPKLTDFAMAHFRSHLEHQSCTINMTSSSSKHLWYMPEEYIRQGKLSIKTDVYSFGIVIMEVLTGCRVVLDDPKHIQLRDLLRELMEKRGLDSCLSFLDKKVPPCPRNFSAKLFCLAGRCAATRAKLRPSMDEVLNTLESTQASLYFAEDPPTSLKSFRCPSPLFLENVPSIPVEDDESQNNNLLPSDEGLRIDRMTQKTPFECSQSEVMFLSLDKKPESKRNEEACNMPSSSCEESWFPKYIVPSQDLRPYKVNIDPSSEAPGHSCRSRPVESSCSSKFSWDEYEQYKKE
Chain of UniProt Q9UQ88 (whole entry, looked up): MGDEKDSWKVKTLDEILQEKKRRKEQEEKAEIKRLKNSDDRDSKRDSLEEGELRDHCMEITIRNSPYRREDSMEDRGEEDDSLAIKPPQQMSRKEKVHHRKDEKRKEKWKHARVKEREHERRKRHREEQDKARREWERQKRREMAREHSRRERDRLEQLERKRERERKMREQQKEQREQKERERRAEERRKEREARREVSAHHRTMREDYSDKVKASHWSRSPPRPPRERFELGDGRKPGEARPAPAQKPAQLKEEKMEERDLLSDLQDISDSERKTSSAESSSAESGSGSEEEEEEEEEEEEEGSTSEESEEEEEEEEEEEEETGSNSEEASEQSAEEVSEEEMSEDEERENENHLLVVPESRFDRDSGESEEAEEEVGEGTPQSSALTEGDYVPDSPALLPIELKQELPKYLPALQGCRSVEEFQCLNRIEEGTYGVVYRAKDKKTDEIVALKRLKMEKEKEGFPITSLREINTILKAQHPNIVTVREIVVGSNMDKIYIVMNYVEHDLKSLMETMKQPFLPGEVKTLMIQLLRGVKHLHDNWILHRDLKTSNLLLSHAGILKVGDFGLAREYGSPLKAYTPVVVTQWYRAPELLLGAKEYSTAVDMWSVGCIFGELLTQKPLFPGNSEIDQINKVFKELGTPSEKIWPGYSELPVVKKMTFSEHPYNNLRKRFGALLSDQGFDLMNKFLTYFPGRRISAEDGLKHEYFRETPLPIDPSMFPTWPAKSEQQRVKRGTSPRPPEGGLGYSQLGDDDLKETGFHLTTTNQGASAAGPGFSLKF

Compound	tested on	test	system	conditions	endpoint	result
COc1ncccc1-c1cnn2ccc(N3CCN(C(=O)OC(C)C)CC3)nc12	SIK3 (Homo sapiens, UniProt Q9Y2K2)	binding, competition with immobilised ligand	–	1 µM	remaining binding	100%
CC(C)C[C@H]1C(=O)N[C@H]([C@H](C)O)C(=O)N[C@@H](C)C(=O)N[C@@H](Cc2ccccc2)C(=O)N[C@H](C(=O)O)CSSC[C@H](N)C(=O)N2CCC[C@@H]2C(=O)N[C@@H](CCC(=O)O)C(=O)N[C@@H](C(C)C)C(=O)N2CCC[C@H]2C(=O)N1C	–	–	aqueous buffer	18 h, pH 7.4	thermodynamic solubility	686 µM (≈ 749 µg/mL)
Cc1[nH]c(C)c(S(=O)(=O)Nc2ccc(S(F)(F)(F)(F)F)cc2)c1C(=O)N1CCC(F)(F)C1	–	–	mouse, plasma	intraperitoneal, 40 mg/kg	Tmax	1 h
C=CS(=O)(=O)c1ccc(Nc2nc(OCC3CCCCC3)c3nc[nH]c3n2)cc1	–	general toxicity	C57BL/6 mouse	intraperitoneal	MTD	100 mg/kg
CCOC(=O)c1c(NC(=O)CNC(C)C)sc2c1CCCCC2	–	–	male mouse, plasma	intraperitoneal, 100 mg/kg, single dose	Tmax	0.25 h
[2H]c1c([2H])c([C@]2([2H])CCCN2C(=O)C(C)(C)Oc2ccc3cn[nH]c3c2)c([2H])c([2H])c1C([2H])([2H])[2H]	IRAK3 (Homo sapiens, UniProt Q9Y616)	binding, competition with immobilised ligand	–	1 µM	remaining binding	53%
N=c1c2c(-c3ccccc3)c(-c3ccccc3)n(Cc3ccccc3)c2ncn1[C@H]1CC[C@H](O)CC1	–	metabolic stability	minipig, hepatocytes	1 µM, 4 h	compound remaining	71%
CC(C)C[C@H]1C(=O)N[C@@H]([C@@H](C)O)C(=O)N[C@@H](CO)C(=O)N[C@@H](C)C(=O)N[C@H]([C@H](C)O)C(=O)N2CCC[C@H]2C(=O)N(C)[C@@H](CC(C)C)C(=O)N[C@H](Cc2ccc(O)cc2)C(=O)N[C@H](Cc2ccccc2)C(=O)N[C@H](C(C)C)C(=O)NCC(=O)N1C	–	–	aqueous buffer	18 h, pH 7.4	thermodynamic solubility	183 µM (≈ 216 µg/mL)
N.N.[Cl][Pt][Cl]	Toledo	cell growth or viability, ATP luminescence	–	10 µM, 72 h	inhibition	100%
Nc1ncc(-c2nc(N3CCOCC3)nc(N3CCOCC3)n2)c(C(F)F)n1	Oprk1 (Rattus norvegicus, UniProt P34975)	cell-free assay, radioligand	–	10 µM	remaining signal	114%
COc1ccc(F)cc1C(=O)NCc1ccc(-c2nn([C@@H](C)C(F)(F)F)c(N)c2C(N)=O)cc1	–	–	human, plasma	oral, 200 mg, single dose, fasted, healthy volunteers	Tmax	3 h
CC[C@@H]1NC(=O)[C@H](CC(C)C)NC(=O)CN(C)C(=O)CNC(=O)[C@@H](CC(C)C)NC(=O)[C@@H](Cc2ccc(O)cc2)NC(=O)CSC[C@@H](C(=O)O)NC(=O)[C@H](C(C)C)NC(=O)[C@H](CC(C)C)NC(=O)[C@H](C)NC(=O)[C@H]([C@@H](C)CC)NC1=O	–	–	aqueous buffer	pH 7.4	solubility	137 µM (≈ 159 µg/mL)
CC(C)CC(=O)OC[C@H]1O[C@@](C#N)(c2ccc3c(N)ncnn23)[C@H](O)[C@@H]1O	–	general toxicity	Sprague-Dawley rat	oral, multiple doses	NOAEL	400 mg/kg/day
Cc1nn(C)cc1-c1nc2c(N3CCN(Cc4ccc(Cl)cc4)CC3)c(Cl)cnc2[nH]1	CDK11A (Homo sapiens, UniProt Q9UQ88)	binding, competition with immobilised ligand	–	1 µM	remaining binding	100%
CCC[C@@](N)(CO)CCc1ccc(OCCCCCC(C)C)cc1	–	–	dog, plasma	oral, 10 mg/kg, fed	Cmax	616 nM

Some of these lines once more:
Compound	tested on	test	system	conditions	endpoint	result
N.N.[Cl][Pt][Cl]	Toledo	cell growth or viability, ATP luminescence	–	10 µM, 72 h	inhibition	100%
Nc1ncc(-c2nc(N3CCOCC3)nc(N3CCOCC3)n2)c(C(F)F)n1	Oprk1 (Rattus norvegicus, UniProt P34975)	cell-free assay, radioligand	–	10 µM	remaining signal	114%
